# Measurements from different studies.
# Compare with care: the assays were run in different laboratories.
# UCHL1: Ubiquitin carboxyl-terminal hydrolase isozyme L1 (UCHL1, Homo sapiens, UniProt P09936)
# Chain of UniProt P09936 (whole entry, looked up): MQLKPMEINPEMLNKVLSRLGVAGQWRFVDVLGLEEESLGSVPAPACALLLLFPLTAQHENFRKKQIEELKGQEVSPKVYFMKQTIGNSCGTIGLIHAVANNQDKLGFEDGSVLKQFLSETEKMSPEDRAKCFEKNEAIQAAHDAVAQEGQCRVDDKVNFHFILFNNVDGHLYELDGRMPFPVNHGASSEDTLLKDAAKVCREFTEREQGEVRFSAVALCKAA
# T1: RNA aptamer, 5'-triphosphate; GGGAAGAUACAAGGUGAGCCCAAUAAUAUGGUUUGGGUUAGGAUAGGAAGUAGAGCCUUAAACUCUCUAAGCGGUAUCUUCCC
# T2: RNA aptamer; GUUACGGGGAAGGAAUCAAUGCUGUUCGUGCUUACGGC
# T3: RNA aptamer; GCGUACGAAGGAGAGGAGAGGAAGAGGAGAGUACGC
# T4: RNA aptamer A45G, 5'-triphosphate/2',3'-cyclic phosphate; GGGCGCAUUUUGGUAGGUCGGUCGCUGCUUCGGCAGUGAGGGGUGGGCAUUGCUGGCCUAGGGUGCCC
# T5: RNA aptamer, 3'-5' linkages; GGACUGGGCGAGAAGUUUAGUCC
# T6: RNA aptamer; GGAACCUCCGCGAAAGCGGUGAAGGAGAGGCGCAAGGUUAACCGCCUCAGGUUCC
# T7: RNA aptamer; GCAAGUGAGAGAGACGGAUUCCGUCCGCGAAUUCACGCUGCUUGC
# T8: RNA aptamer (Homo sapiens); chain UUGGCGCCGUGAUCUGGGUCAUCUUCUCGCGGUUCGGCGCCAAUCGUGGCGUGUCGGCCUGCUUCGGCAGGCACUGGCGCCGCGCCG; chain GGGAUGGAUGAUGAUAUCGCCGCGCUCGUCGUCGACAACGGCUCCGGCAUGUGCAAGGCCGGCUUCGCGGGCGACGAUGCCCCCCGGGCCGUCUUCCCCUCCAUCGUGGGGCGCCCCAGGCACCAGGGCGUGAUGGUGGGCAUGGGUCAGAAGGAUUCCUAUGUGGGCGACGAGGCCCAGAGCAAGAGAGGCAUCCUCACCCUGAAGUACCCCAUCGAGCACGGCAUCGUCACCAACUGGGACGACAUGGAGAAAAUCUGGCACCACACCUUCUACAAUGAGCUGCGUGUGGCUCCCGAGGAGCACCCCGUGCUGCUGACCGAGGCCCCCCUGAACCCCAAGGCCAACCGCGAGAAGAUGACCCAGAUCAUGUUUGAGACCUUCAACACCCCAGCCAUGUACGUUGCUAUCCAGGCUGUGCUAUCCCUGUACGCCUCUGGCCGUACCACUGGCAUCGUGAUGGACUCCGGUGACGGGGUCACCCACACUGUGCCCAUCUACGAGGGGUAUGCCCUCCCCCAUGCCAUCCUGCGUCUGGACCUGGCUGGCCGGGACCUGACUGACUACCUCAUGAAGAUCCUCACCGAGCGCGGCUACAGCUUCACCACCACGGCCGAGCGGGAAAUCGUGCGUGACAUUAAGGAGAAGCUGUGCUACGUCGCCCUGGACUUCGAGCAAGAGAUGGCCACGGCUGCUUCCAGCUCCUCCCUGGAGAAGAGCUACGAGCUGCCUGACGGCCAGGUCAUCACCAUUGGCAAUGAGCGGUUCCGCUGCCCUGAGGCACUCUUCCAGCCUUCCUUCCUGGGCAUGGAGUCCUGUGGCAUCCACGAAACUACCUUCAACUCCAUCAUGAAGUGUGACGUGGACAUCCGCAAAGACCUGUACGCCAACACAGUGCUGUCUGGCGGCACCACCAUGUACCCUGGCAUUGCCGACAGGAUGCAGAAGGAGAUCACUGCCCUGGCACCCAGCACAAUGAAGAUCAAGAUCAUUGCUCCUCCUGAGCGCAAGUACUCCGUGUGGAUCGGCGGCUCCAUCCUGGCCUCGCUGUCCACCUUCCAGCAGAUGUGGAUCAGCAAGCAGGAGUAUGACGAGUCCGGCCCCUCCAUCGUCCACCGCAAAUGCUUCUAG
# T9: RNA aptamer; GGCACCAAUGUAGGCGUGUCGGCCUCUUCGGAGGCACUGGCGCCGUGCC
Compound,target or system,test,test system,setting,scale,endpoint,value
CC1=N/C(=C\c2cc(F)c(O)c(F)c2)C(=O)N1CC(F)(F)F,"T1, RNA aptamer, 5'-triphosphate",not stated,,not measured here,,Kd,45 nM
CN1C=CC(=Cc2sc3ccccc3[n+]2CC(=O)NCCOCCOCCOCCNC(=O)CCCC[C@@H]2SC[C@@H]3NC(=O)N[C@@H]32)c2ccccc21,"T2, RNA aptamer",fluorescence light-up,,10 µM dye,,binding,binds
CN1C=CC(=Cc2sc3ccccc3[n+]2CC(=O)NCCOCCOCCOCCNC(=O)CCCC[C@@H]2SC[C@@H]3NC(=O)N[C@@H]32)c2ccccc21,"T3, RNA aptamer",fluorescence titration,,apparent,,Kd,0.85 nM
Nc1nc2c(ncn2[C@@H]2O[C@H](COP(=O)(O)OP(=O)(O)OP(=O)(O)O)[C@@H](O)[C@H]2O)c(=O)[nH]1,"T4, RNA aptamer A45G, 5'-triphosphate/2',3'-cyclic phosphate",ITC,,,,Kd,309 nM
C=CC(=O)NC(=O)NCc1ccccc1,UCHL1,"covalent, intact protein LC-MS",,12.5 µM,,labelling,10.6%
NC[C@@H]1O[C@H](O[C@H]2[C@@H](O)[C@H](O[C@@H]3[C@@H](O)[C@H](N)C[C@H](N)[C@H]3O[C@H]3O[C@H](CN)[C@@H](O)[C@H](O)[C@H]3N)O[C@@H]2CO)[C@H](N)[C@@H](O)[C@@H]1O,"T5, RNA aptamer, 3'-5' linkages",ITC,,,,Kd,1 nM
CC(Cl)C(=O)N1CCCN(C(=O)c2cc(Cl)cn2C)CC1 (stereo not drawn),UCHL1,"covalent, intact protein LC-MS",,12.5 µM,,labelling,8.55%
CN(C)c1ccc2c(-c3ccc(C(=O)O)cc3C(=O)[O-])c3ccc(=[N+](C)C)cc-3oc2c1,"T6, RNA aptamer",ITC,,,,Kd,70 nM
Fc1ccc(Nc2nc(NCc3ncccn3)nc(Nc3ccccc3)n2)cc1,"T7, RNA aptamer",ITC,,37 °C,,Kd,48 nM
CN(CCO)c1cc2sc(/C=C(\C#N)c3ccc(C#N)cc3)cc2s1,"T8, RNA aptamer (Homo sapiens)",fluorescence activation,,,,binding,binds
CN(CCO)c1ccc(/C=C(\C#N)c2ccc(C#N)cc2)cc1,"T9, RNA aptamer","fluorescence titration, Hill fit",,apparent,,Kd,1920 nM
CN(C)CCCN(C(=O)c1nc2ccccc2s1)c1nc2ccc(F)cc2s1,Trypanosoma cruzi,"reporter translation, Renilla luciferase mRNA translation",cell-free extract,40 µM,reference: DMSO,inhibition,0.5%

# Some of these lines once more:
Compound,target or system,test,test system,setting,scale,endpoint,value
CN(C)c1ccc2c(-c3ccc(C(=O)O)cc3C(=O)[O-])c3ccc(=[N+](C)C)cc-3oc2c1,"T6, RNA aptamer",ITC,,,,Kd,70 nM
